# Experimental data collected from several papers.
# Parts stem from different laboratories: compare values within a part only. Substitutions count along the parent as printed.

# Series 1 — method: protein-binding microarray; molecule type: double-stranded DNA, one strand shown; medium: in vitro; concentration: 940 nM top; setting: 60-bp whole probe; added: salmon DNA 0.4 mg/ml; relative to: random background probes; reading: higher = stronger binding; shared flanks, not repeated: GCCTAGCAC … GTCTTGATTCGCTTGACGCTGCTG
# Target: Interferon regulatory factor 5, full length, phosphomimetic (IRF5, Homo sapiens, UniProt Q13568-2, residues 1-514, S451D/S453D/S456D/S462D)
Strand,fitted relative affinity [z-score]
GACGATCTCAGTTTCGAGCCGTGCTAG,3.23
TCAGGTTTGTACACCGCACTGTGCTAG,-0.294
GACGGACTGGGGACTGGTGACGTGCTA,-0.145
TCATTTTTTTTATTTATACTGTGCTAG,1.6
TTAGATCTCAGACTGGACTAGTGCTAG,-0.239
TTAGATACCGGGTATCGATTAGTGCTA,3.31
CTCTTTCTTTGCTTCACCCTGTGCTAG,2.07
GACGGTTTTCTTATCCTGACGTGCTAG,1.12
TTAGAGCTCAGTTTCGATTAGTGCTAG,7.96
GACGATTGCAGTATCGAGACGTGCTAG,1.34
TTAGGTATCGGGCTCGGTTAGTGCTAG,3.95
TTGGATATCAGACTGGATTAGTGCTAG,-0.702
TTAGGTTTCCTTATCCTTCAGTGCTAG,1.8
TCATTTTTACTTCGGGTACTGTGCTAG,0.945
TTGTTTTTCATCATTGCCTAGTGCTAG,1.39
CACGGACTGGGGTATCGGGACGTGCTA,0.374
TTAGGTTTCTTACTGCTTTAGTGCTAG,1.94

# Series 2 — Sequence: B1 (RNF149 RING domain); method: yeast two-hybrid; medium: yeast; setting: mostly zero background; relative to: not given; reading: higher = stronger interaction
# B1: RNF149 RING domain (UniProt Q8NC42); chain EKGIDVDAENCAVCIENFKVKDIIRILPCKHIFHRICIDPWLLDHRTCPMCKLDVIKALGYW
target,lacZ reporter activity
UBE2B UBC core domain (UniProt P63146),0
UBE2G1 UBC core domain (UniProt P62253),0
BIRC6 UBC core domain (UniProt Q9NR09),0
UBE2T UBC core domain (UniProt Q9NPD8),0
UBE2M UBC core domain (UniProt P61081),0
UBE2J1 UBC core domain (UniProt Q9Y385),0
UBE2Z UBC core domain (UniProt Q9H832),0
UBE2I UBC core domain (UniProt P63279),0
UBE2S UBC core domain (UniProt Q16763),0
UBE2J2 UBC core domain (UniProt Q8N2K1),0
UBE2C UBC core domain (UniProt O00762),0

# Series 3 — target: CCND2, cyclin fold, Cln2 fusion (human); method: yeast growth competition, sequencing; medium: yeast; setting: weak parent motif; relative to: not given; reading: higher = stronger binding
# Parent: CDC6 docking peptide (human); TLKGRRLVFDNQL
Change,normalised enrichment score
N11Y,0.529
D10C,0.543
R5T,0.641
L13V,0.0346
L13M,0.261
Q12K,-0.0154
V8L,0.431
T1I,-0.0336
L2C,0.367
L2Q,0.0596
K3F,-0.124
L7S,-0.0864
V8D,0.738
K3R,0.303
Q12M,0.213
V8F,-0.174
R6W,-0.468
R6I,0.148
T1Y,0.0673
R6G,-0.266
L7H,0.0233
D10H,-0.189
T1H,0.657
L13C,0.325
Q12V,0.38

# Series 4 — method: DHFR PCA, dose-response; medium: yeast; setting: Hill fit, mean, not affinity; added: (+)-ABA, dose series; reading: lower = more sensitive
# Target: ABI1, truncated, D143A, DHFR fusion (Arabidopsis thaliana, UniProt P49597)
# Parent: PYL1, truncated, DHFR fusion (Arabidopsis thaliana, UniProt Q8VZS8); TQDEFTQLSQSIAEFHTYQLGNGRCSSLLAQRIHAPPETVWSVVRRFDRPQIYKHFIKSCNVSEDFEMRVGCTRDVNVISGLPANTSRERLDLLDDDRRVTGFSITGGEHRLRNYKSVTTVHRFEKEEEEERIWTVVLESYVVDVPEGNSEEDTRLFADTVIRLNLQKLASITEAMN
Change,ABA EC50 [µM]
L138Y,63.7
L156M,1.63
E14N,11.3
G23V,78
E14Y,28.4
E131Y,4.93
R163I,38.4
R32N,9.3
R69L,5.4
A175E,2.24
S63I,3.75
V145I,2.96
L82Q,223
E109A,7.93
E147C,4
C25A,2.01
I79H,2.75
Y18E,20.6
D92H,104
G107K,73.5
E109I,7.52
E125M,1.6
S80K,55.1

# Some of these lines once more (series 1):
Strand,fitted relative affinity [z-score]
GACGATCTCAGTTTCGAGCCGTGCTAG,3.23
TCAGGTTTGTACACCGCACTGTGCTAG,-0.294
GACGGACTGGGGACTGGTGACGTGCTA,-0.145
TCATTTTTTTTATTTATACTGTGCTAG,1.6
TTAGATCTCAGACTGGACTAGTGCTAG,-0.239
TTAGATACCGGGTATCGATTAGTGCTA,3.31
CTCTTTCTTTGCTTCACCCTGTGCTAG,2.07
GACGGTTTTCTTATCCTGACGTGCTAG,1.12
TTAGAGCTCAGTTTCGATTAGTGCTAG,7.96
GACGATTGCAGTATCGAGACGTGCTAG,1.34
TTAGGTATCGGGCTCGGTTAGTGCTAG,3.95
TTGGATATCAGACTGGATTAGTGCTAG,-0.702
